Measured values gathered from unrelated publications.
Compare with care: the assays were run in different laboratories. Values joined by “and” are separate records of one study, mostly repeats; a detail may differ. Numbers after ± are the reported error.
BACE1: Beta-secretase 1 (BACE1, Homo sapiens, UniProt P56817)
UniProt P56817, sequence (whole entry, looked up): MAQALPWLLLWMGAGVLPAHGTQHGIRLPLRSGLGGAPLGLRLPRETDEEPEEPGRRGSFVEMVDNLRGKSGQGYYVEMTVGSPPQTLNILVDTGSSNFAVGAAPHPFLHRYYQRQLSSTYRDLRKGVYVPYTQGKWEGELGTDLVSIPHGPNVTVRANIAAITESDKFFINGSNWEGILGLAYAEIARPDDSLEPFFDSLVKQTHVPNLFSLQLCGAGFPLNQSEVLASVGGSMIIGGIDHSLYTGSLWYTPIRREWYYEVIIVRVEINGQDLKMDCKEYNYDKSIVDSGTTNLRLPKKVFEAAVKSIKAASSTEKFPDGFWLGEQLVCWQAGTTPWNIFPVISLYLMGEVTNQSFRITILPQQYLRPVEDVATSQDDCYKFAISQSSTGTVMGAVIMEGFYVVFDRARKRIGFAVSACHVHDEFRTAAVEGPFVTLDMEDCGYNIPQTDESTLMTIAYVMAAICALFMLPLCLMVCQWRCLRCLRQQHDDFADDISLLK
Grik2: Glutamate receptor ionotropic, kainate 2 (Grik2, Rattus norvegicus, UniProt P42260)
UniProt P42260, sequence (whole entry, looked up): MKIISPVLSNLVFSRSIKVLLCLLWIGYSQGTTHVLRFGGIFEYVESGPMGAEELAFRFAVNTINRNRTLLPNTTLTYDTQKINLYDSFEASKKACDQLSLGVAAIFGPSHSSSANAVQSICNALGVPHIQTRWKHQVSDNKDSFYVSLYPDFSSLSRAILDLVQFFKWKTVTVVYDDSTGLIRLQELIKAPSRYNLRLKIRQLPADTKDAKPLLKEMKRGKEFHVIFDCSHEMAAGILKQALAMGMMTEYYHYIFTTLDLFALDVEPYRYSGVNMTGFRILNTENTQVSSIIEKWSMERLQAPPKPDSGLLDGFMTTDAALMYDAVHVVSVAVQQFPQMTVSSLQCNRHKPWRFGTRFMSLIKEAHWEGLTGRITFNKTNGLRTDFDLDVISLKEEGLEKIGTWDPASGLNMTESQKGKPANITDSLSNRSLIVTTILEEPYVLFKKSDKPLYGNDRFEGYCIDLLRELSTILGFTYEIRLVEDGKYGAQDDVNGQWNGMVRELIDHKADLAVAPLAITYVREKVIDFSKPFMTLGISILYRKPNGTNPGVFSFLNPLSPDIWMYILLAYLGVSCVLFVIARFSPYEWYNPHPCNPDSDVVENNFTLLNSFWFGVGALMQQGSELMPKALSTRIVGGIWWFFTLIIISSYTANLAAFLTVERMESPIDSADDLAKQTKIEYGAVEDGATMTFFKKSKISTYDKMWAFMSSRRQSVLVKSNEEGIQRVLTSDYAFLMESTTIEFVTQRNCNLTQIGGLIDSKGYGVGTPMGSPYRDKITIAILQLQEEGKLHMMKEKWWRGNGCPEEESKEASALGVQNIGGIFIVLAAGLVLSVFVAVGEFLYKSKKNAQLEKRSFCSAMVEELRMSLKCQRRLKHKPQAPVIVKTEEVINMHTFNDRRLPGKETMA
Ephx2: Bifunctional epoxide hydrolase 2 (Ephx2, Mus musculus, UniProt P34914)
UniProt P34914, sequence (whole entry, looked up): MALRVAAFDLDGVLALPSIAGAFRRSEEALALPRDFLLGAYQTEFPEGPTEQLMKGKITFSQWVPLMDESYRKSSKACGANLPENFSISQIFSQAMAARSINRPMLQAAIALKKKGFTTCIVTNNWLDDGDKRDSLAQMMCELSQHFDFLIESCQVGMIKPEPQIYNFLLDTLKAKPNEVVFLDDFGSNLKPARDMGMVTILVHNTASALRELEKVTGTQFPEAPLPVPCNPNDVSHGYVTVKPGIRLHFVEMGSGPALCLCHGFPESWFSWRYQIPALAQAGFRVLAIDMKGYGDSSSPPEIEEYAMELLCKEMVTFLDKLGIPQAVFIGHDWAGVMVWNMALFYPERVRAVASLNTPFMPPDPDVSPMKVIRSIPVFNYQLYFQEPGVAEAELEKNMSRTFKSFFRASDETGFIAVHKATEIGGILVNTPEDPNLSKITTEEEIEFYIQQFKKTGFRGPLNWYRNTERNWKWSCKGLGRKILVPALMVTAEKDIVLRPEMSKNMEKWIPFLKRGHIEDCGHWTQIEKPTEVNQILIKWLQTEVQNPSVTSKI
Kir3.1/Kir3.2: Kir3.1/Kir3.2 (Homo sapiens, UniProt P48051+P48549)
UniProt P48549, sequence (whole entry, looked up): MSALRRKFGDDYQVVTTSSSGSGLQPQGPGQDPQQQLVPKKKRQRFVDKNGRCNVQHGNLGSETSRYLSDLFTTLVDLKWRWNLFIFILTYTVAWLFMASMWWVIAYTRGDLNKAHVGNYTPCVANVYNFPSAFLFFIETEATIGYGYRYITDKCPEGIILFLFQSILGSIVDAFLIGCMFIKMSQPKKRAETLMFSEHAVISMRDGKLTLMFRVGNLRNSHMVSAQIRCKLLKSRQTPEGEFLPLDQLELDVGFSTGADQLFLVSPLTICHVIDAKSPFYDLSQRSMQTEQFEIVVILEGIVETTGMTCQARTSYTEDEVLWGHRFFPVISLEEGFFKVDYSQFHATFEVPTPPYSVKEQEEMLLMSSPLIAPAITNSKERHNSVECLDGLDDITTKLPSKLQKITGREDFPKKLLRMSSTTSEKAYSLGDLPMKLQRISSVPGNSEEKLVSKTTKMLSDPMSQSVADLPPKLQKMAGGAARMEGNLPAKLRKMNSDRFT
UniProt P48051, sequence (whole entry, looked up): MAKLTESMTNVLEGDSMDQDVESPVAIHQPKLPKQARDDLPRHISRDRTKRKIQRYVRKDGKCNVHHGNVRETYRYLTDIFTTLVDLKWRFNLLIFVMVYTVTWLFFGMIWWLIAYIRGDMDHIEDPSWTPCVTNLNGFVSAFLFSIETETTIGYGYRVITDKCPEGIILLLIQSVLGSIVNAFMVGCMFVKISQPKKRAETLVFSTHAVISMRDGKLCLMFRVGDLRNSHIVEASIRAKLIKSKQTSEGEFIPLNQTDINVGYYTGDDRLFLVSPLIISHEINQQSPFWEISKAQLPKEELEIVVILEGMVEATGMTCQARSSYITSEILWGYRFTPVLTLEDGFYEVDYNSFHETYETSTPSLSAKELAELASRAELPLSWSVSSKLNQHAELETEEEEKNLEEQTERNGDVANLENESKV
ALPI: Intestinal-type alkaline phosphatase (ALPI, Bos taurus, UniProt P19111)
UniProt P19111, sequence (whole entry, looked up): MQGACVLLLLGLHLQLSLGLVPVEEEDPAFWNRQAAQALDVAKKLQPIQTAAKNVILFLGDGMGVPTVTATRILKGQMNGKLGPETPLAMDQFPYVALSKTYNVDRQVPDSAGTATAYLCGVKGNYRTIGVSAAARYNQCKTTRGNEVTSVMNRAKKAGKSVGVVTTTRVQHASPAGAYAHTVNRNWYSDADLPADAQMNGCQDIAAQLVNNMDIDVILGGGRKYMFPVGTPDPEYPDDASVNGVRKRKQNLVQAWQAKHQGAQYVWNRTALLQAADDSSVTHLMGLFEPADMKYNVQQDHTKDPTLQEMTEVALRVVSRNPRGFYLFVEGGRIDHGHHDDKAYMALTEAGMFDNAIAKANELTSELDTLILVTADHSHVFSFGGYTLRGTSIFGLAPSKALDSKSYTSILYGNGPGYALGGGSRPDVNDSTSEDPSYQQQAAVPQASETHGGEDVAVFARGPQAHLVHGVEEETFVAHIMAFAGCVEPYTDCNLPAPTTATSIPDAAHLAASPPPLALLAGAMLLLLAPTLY
NMBR: Neuromedin-B receptor (NMBR, Homo sapiens, UniProt P28336)
EGLN1: Egl nine homolog 1 (EGLN1, Homo sapiens, UniProt Q9GZT9)
UniProt P42336, sequence (whole entry, unmodified, looked up): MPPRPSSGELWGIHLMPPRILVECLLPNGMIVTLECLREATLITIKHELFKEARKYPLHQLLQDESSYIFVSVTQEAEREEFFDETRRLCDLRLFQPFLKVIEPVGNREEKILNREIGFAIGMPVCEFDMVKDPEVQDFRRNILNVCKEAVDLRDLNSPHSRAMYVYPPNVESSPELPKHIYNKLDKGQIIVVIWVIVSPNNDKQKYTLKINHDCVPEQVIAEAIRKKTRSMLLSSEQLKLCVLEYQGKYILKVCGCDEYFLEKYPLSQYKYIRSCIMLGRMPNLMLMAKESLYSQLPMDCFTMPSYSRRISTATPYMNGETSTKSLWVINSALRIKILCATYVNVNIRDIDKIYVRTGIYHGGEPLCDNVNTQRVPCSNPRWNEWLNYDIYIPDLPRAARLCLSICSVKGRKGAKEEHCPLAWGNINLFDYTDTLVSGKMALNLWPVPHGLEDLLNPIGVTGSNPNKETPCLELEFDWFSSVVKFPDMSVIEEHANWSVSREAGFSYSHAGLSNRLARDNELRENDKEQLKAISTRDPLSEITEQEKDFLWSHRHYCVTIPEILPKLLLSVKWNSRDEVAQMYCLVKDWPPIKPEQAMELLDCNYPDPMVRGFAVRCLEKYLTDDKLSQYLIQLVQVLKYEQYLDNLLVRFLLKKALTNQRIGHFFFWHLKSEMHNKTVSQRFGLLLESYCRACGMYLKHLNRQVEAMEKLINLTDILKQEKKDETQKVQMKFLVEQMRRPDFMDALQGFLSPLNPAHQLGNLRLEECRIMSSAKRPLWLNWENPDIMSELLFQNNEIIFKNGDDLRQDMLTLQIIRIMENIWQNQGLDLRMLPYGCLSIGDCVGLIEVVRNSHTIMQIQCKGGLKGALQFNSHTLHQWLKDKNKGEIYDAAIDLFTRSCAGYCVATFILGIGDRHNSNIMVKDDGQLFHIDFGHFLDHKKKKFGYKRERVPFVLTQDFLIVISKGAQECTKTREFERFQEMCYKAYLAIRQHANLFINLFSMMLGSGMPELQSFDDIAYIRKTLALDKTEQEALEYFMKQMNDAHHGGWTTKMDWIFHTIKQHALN
UniProt Q9GZT9, sequence (whole entry, looked up): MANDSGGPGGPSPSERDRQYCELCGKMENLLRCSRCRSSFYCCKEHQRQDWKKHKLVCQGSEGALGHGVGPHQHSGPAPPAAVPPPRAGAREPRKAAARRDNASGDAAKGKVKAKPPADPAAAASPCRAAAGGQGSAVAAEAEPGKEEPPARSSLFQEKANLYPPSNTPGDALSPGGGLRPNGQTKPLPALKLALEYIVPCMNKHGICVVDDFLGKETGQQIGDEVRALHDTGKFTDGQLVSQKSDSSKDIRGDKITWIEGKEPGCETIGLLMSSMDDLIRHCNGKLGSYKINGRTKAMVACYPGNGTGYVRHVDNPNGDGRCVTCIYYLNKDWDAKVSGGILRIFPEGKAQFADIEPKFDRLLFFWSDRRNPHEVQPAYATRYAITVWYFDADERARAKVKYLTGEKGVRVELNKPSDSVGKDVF

CC(/C=C/c1ccc(OCC(=O)Nc2ccccc2F)cc1)=N\O
IC50 (PPARG (Homo sapiens, UniProt P37231); ligand displacement, TR-FRET): 14 µM

CC(=O)N[C@H]1[C@@H](O[C@H]2[C@H](O)[C@@H](O)[C@H](O[C@H]3[C@H](O)[C@@H](NC(C)=O)[C@@H](OCCCCCN)O[C@@H]3COS(=O)(=O)O)O[C@@H]2C(=O)O)O[C@H](COS(=O)(=O)O)[C@@H](O[C@@H]2O[C@@H](C(=O)O)[C@@H](O)[C@H](O)[C@H]2O)[C@@H]1O
IC50 (BACE1; enzyme activity, inhibitor, FRET; pH 4.5): 94 µM

COc1ccc(-n2c(/C=C/c3cccc([N+](=O)[O-])c3)nc3ccccc3c2=O)cc1
IC50 (Grik2; ion current, inhibitor, two-electrode voltage clamp; Xenopus oocytes; concanavalin A pretreatment, together with: 100 µM glutamate): > 300 µM

O=C(O)c1ccc(C(=O)O)nc1
IC50 (KDM4E (Homo sapiens, UniProt B2RXH2); inhibitor, AlphaScreen; 0.1% DMSO, together with: 30 nM biotin-H3K9me3 peptide): > 100 µM

Cc1ccc(-c2ccc(Cn3cccc(O)c3=S)cc2)cc1
IC50 (HDAC1 (Homo sapiens, UniProt Q13547); enzyme activity, inhibitor, SAMDI mass spectrometry): > 10 µM

CC(=O)Oc1cc(-c2coc3cc(OC(C)=O)c(OC(C)=O)c(OC(C)=O)c3c2=O)cc(OC(C)=O)c1OC(C)=O
IC50 (mRNA triphosphatase Cet1 (Trypanosoma brucei brucei, UniProt Q582T2); enzyme activity, Transcreener ADP fluorescence polarization; 3 h, together with: 50 µM ATP): 0.71 µM

C/C(=C\C(=O)Nc1ccccc1C(=O)O)c1ccc2ccccc2c1
IC50 (TERT (Homo sapiens, UniProt O14746); enzyme activity, inhibitor): ~1 µM

[Cl-].[Cl-].[Zn+2]
IC50 (HVCN1 (Homo sapiens, UniProt Q96D96, E119A); proton current, inhibitor, whole-cell voltage clamp; human cells; pH 6.5, test pulse 120 mV): 7.55 µM

O=c1cc(N2CCOCC2)oc2c(OCc3cccnc3)cccc12
IC50 (PIK3CA (Homo sapiens, UniProt P42336, H855E); enzyme activity, inhibitor): 4.1 µM

Cc1cc(C(=O)N[C@@H](CC(=O)NC(C)(C)C)C(=O)N[C@@H](C)CC(=O)NCc2cccc3ccccc23)no1
IC50 (Proteasome component C5/PSMB8 (Homo sapiens, UniProt P20618+P28062); chymotrypsin-like activity, inhibitor; together with: ac-ANW-AMC): 0.19 ± 0.018 µM

C[C@@H](CNCc1ccccc1)N1C[C@H](CCCNC(=N)N)N(CCc2cccc(F)c2)C1=S
IC50 (NPBWR1 (Homo sapiens, UniProt P48145); receptor activation, antagonist, FLIPR): > 10 µM

C[C@]12C[C@@H]3C[C@](C)(C1)C[C@@](NC(=O)Nc1ccc(CN4CCC[C@H](C(=O)NCCCCC(=O)NO)C4)cc1F)(C3)C2
IC50 (Ephx2; enzyme activity, inhibitor, fluorescence): 0.0022 µM

N=c1n(Cc2ccccc2)c2ccccc2n1CC(O)COc1ccc(OCc2ccccc2)cc1 (stereo not drawn)
IC50 (Kir3.1/Kir3.2; ion flux): 3.17 µM

O=C1NC2=C(C(=O)N(c3ccc(Cl)cc3)C2)C(c2ccccc2O)N1 (stereo not drawn)
IC50 (ALPI; enzyme activity, inhibitor, absorbance; pH 9.5): 2.94 µM

C[C@]12CC3CC(Nc4c(Nc5ccc(CN6CCC[C@H](C(=O)NCCCCC(=O)NO)C6)cc5F)c(=O)c4=O)(C1)C[C@@](C)(C3)C2
IC50 (Ephx2; enzyme activity, inhibitor, fluorescence): 1.29 µM

COC(=O)CC[C@@H](C)[C@H]1CC[C@H]2[C@@H]3CC[C@@H]4C[C@H](OC(=O)CCCCCC(=O)O)CC[C@]4(C)[C@H]3CC[C@]12C
IC50 (human 20S proteasome; chymotrypsin-like activity, inhibitor; together with: PA28): > 10 µM

C[C@]12C[C@@H]3C[C@](C)(C1)C[C@@](NC(=O)Nc1ccc(CN4CCC[C@H](C(=O)NCCCCCC(=O)NO)C4)cc1F)(C3)C2
IC50 (Ephx2; enzyme activity, inhibitor, fluorescence): 0.0025 µM

N=c1n(Cc2ccccc2)c2ccccc2n1CC(O)COc1ccc(Cl)cc1Cl (stereo not drawn)
IC50 (Kir3.1/Kir3.2; ion flux): 3.2 µM

COc1ccc2c(CC(=O)NCCCC[C@H](N)C(=O)N[C@@H](CCC(=O)O)C(=O)N[C@@H](Cc3ccc(CS(=O)(=O)O)cc3)C(=O)N[C@@H](CCC(=O)O)C(=O)N[C@@H](Cc3ccc(CS(=O)(=O)O)cc3)C(=O)N[C@@H](CC(C)C)C(=O)N[C@@H](CC(=O)O)C(=O)N[C@@H](Cc3ccc(CS(=O)(=O)O)cc3)C(=O)N[C@@H](CC(=O)O)C(=O)N[C@@H](Cc3ccccc3)C(=O)N[C@@H](CC(C)C)C(=O)N3CCC[C@H]3C(=O)N[C@@H](CCC(=O)O)C(=O)N[C@H](C(=O)N[C@@H](CCC(=O)O)C(=O)N3CCC[C@H]3C(=O)N[C@@H](CC(C)C)C(=O)O)[C@@H](C)O[C@H]3O[C@H](CO[C@@H]4O[C@H](CO)[C@@H](O[C@@H]5O[C@H](CO)[C@H](O)[C@H](O[C@]6(C(=O)O)C[C@H](O)[C@@H](NC(C)=O)[C@H]([C@H](O)[C@H](O)CO)O6)[C@H]5O)[C@H](O[C@@H]5O[C@@H](C)[C@@H](O)[C@@H](O)[C@@H]5O)[C@H]4NC(C)=O)[C@H](O)[C@H](O[C@@H]4O[C@H](CO)[C@H](O)[C@H](O)[C@H]4O)[C@H]3NC(C)=O)cc(=O)oc2c1
IC50 (P-selectin (Mus musculus, UniProt Q01102); chimera binding to monocytes, inhibitor, flow cytometry; mouse monocytes; together with: P-selectin Fc chimera 2 µg/mL): ~28 µM

C[C@@H]1O[C@](O)(CO)[C@@H](O)[C@H](O)[C@H]1O
IC50 (3-dehydroquinate synthase, chloroplastic (DHQS, Arabidopsis thaliana, UniProt Q8VYV7); enzyme activity, inhibitor, malachite green phosphate release; 29 °C): 465 µM

Clc1ccc(CN2CCCN(Cc3ccc(Cl)cc3)C2c2cc3ccccc3c3ccccc23)cc1
IC50 (BACE1; enzyme activity, inhibitor, FRET; pH 4.5): 40 µM

FC(F)(F)Oc1ccc(Oc2ccnc(N3CCC(NC(=S)Nc4cccnc4)CC3)c2Cl)c(Cl)c1
IC50 (Abhd12 (Mus musculus, UniProt Q99LR1); lyso-PS hydrolysis, inhibitor; HEK293T cell lysate; together with: lyso-PS 12.5 to 200 µM): 0.005 to 0.07 µM

sodium copper chlorophyllin
IC50 (MDH2 (Sus scrofa, UniProt P00346); enzyme activity, inhibitor; counter-screen): > 63 µM

O=C1O[C@H]([C@@H](O)CO)C(O)=C1O
IC50 (mushroom tyrosinase; enzyme activity, inhibitor; 2 min, together with: L-DOPA): 30 µg/mL

CCC(C)Oc1nc(N)nc(N)c1C#N (stereo not drawn)
IC50 (PIK3CA (Homo sapiens, UniProt P42336); enzyme activity, inhibitor): 10 to 20 µM and 12 µM and 9.9 µM

CSCC[C@H](NC(=O)[C@@H](Cc1c[nH]c2ccccc12)NC(=O)[C@@H](Cc1c[nH]c2ccccc12)NC(=O)[C@H](Cc1ccccc1)NC(=O)[C@@H](Cc1c[nH]c2ccccc12)NC(=O)[C@H](CCC(N)=O)NC(=O)[C@H](CCC(N)=O)NC(=O)[C@H]1CCCN1)C(N)=O
IC50 (NMBR; inositol phosphate generation, antagonist; Balb 3T3 expressing NMBR; together with: neuromedin B 1 nM): > 10 µM

CC(C)(C)[C@H](NC(=O)c1ccc(N)c(Cl)c1)C(=O)N1CCC[C@H]1C(=O)N[C@H](C=O)CC(=O)O
IC50 (Caspase-1 (CASP1, Homo sapiens, UniProt P29466); enzyme activity, inhibitor, fluorescence; with preincubation): 0.0115 µM

O=C(O)CCC(=O)NNC(=O)c1cc2ccccc2cn1
IC50 (EGLN1; inhibitor, AlphaScreen; bimodal curve, rough estimate, together with: 2 µM 2-oxoglutarate): 18.4 µM

Cc1cccc(NC(=O)c2sc3nc4c(cc3c2N)CCCCC4)c1
IC50 (PIM1 (Homo sapiens, UniProt P11309); kinase activity, inhibitor, ADP-Glo): ≤ 5.9 µM

C=C(C)CCOP(=O)(O)OP(=O)(O)OP(=O)(O)OC[C@H]1O[C@@H](n2cnc3c(N)ncnc32)[C@H](O)[C@@H]1O
IC50 (PLK1 (Homo sapiens, UniProt P53350); enzyme activity, inhibitor, HotSpot kinase; together with: ATP 1 µM): 2.6 µM

COc1cc(/C=C/C(=O)CC(=O)/C=C/c2ccc(O)c(OC)c2)ccc1O
IC50 (mushroom tyrosinase; inhibitor; together with: L-tyrosine): 39.6 ± 5.76 µM

O=C(O)CCCC(=O)NNC(=O)c1cnc2ccccc2c1
IC50 (EGLN1; inhibitor, AlphaScreen; bimodal curve, rough estimate, together with: 2 µM 2-oxoglutarate): > 300 µM

Cc1ccc(Oc2cccc(CC(=O)N3CCNc4nc(C(F)(F)F)ccc4[C@H]3CC(=O)O)c2)cn1
IC50 (NMBR; ligand displacement, radioligand): > 3 µM

CN(C)CC(c1ccc(O)cc1)C1(O)CCCCC1 (stereo not drawn)
IC50 (Slc6a4 (Mus musculus, UniProt Q60857); [3H]5-HT uptake; brain synaptosomes; 10 min, pH 7.4, 37 °C, wild type, together with: [3H]5-HT 100 nM): 0.16 µM

Fc1ccc(F)cc1
IC50 (Neuronal acetylcholine receptor; alpha4/beta2 (Homo sapiens, UniProt P17787+P43681); ion current, inhibitor, two-electrode voltage clamp; Xenopus oocytes; together with: ACh 1 mM): 0.002 atm

N=c1n(Cc2ccccc2)c2ccccc2n1CC(O)COc1ccccc1 (stereo not drawn)
IC50 (Kir3.1/Kir3.2; ion flux): 1.95 µM

O=c1c(O)c(-c2ccc(O)c(O)c2)oc2cc(O)cc(O)c12
IC50 (UGT1A1 (Homo sapiens, UniProt P22309); glucuronidation; pooled human liver microsomes; no preincubation): 54 µM

COc1cccc(-n2c(/C=C/c3ccccc3[N+](=O)[O-])nc3ccccc3c2=O)c1
IC50 (Grik2; ion current, inhibitor, two-electrode voltage clamp; Xenopus oocytes; concanavalin A pretreatment, together with: 100 µM glutamate): > 300 µM

O=C(O)c1cc2c(C(F)(F)F)cc(-c3ccccc3)cc2n1O
IC50 (LDHA (Homo sapiens, UniProt P00338); inhibitor, NADH fluorescence; NADH competition, together with: 1440 µM pyruvate, 40 µM NADH): 29 ± 3 µM

Cn1c(=O)n(-c2ccc(C(C)(C)C#N)cc2)c2c3cc(-c4cnc5ccccc5c4)ccc3ncc21
IC50 (Serine/threonine-protein kinase ATR (Atr, Mus musculus, UniProt Q9JKK8); inhibitor, high-content microscopy, item: nuclear γH2AX; TopBP1-ER cells; together with: 4-hydroxytamoxifen): 0.1 µM

CCOC(=O)C1=C(O)C(=O)N(Cc2ccccc2)C1
IC50 (AKR1B10 (Homo sapiens, UniProt O60218); enzyme activity, inhibitor): 12 µM

CC(C)NCc1ccc(C[C@@H]2NC(=O)[C@@H](N(C)C(=O)c3ccc4ccccc4c3)NC(=O)[C@H](Cc3ccccc3)NC(=O)[C@H](N)CSSC[C@@H](C(=O)N[C@@H](Cc3ccc4ccccc4c3)C(N)=O)NC(=O)[C@H](Cc3ccccc3)NC2=O)cc1
IC50 (SSTR4 (Homo sapiens, UniProt P31391); ligand displacement, radioligand; cell membranes): 0.063 µM

COc1ccc2c(c1)c(CC(=O)O)cn2C(=O)c1ccc(Cl)cc1
IC50 (Ptgs2 (Mus musculus, UniProt Q05769); 2-AG oxygenation, inhibitor, oxygen uptake; 2 min preincubation, together with: 2-AG 50 µM): 6.8 µM

CN1CCN(Cc2nc3cccc4c3c([n+]2[O-])-c2ccccc2-4)CC1
IC50 (BACE1; inhibitor, FRET; pH 4.5): 315 ± 77 µM

[Cl][Yb]([Cl])[Cl]
IC50 (Collagenase 3 (MMP13, Homo sapiens, UniProt P45452); enzyme activity, inhibitor; pH 7.5, with preincubation): 12.7 µM

CCCCCCCCN1CC2=C(C1=O)C(c1ccccc1O)NC(=O)N2 (stereo not drawn)
IC50 (ALPI; enzyme activity, inhibitor, absorbance; pH 9.5): 8.72 µM

CC(O)c1cc(C(=O)N[C@@H](C)Cn2ccc(-c3ccc(C#N)c(Cl)c3)n2)[nH]n1 (stereo partly drawn)
IC50 (SLCO1B3 (Homo sapiens, UniProt Q9NPD5); transporter uptake, inhibitor; with preincubation): 5 µM

CC[C@@H](C(=O)Nc1ccc(C(N)=O)c(F)c1)n1cc(OC)c(-c2cc(Cl)ccc2-n2cc(C(F)(F)F)nn2)cc1=O
IC50 (coagulation factor XI (Oryctolagus cuniculus, UniProt G1SSQ6)): 0.54 µM

O=S(=O)(Nc1ccccc1Cl)C1CC2OC1C(c1ccc(O)cc1)=C2c1ccc(O)cc1 (stereo not drawn)
IC50 (ESR2 (Homo sapiens, UniProt Q92731); reporter gene, antagonist, luciferase): 0.1 µM

Cc1nc2ccccc2n1Cc1ccc(C(=O)NO)cc1
IC50 (HDAC5 (Homo sapiens, UniProt Q9UQL6); concentration not given): 0.406 µM

Oc1cccnc1O
IC50 (EGLN1; ODDD peptide hydroxylation, inhibitor, MALDI-TOF MS; pH 7.00, 37.0 °C, together with: 2-oxoglutarate 10 µM): 5 µM
